Published values of several laboratories.
Parts stem from different laboratories: compare values within a part only. Changes are numbered by the printed parent chain.

Sample 1
Target: RING finger protein unkempt homolog, zinc fingers 1-6, SBP tag (UNK, Homo sapiens, UniProt Q9C0B0, residues 30-357)
UniProt Q9C0B0, sequence (30-357, looked up): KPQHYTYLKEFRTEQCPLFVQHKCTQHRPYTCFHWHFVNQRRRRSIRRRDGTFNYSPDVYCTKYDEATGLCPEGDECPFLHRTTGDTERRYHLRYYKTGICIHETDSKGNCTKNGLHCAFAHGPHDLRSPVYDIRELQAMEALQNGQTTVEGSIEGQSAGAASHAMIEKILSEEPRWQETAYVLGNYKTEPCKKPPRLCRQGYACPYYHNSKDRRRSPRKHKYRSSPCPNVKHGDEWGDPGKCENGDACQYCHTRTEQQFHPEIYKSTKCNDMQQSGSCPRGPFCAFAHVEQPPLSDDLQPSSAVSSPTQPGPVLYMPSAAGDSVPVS
Technique: RNA Bind-n-Seq
Molecule type: RNA
Medium: in vitro
Concentration: 100 nM
Setting: RNA with constant flanks, vertebrate orthologous sites, ends assumed
Reference: input RNA pool
Reading: higher = stronger binding
Constant ends, left off below: GGGAGUUCUACAGUCCGACGAUC … CAACAGAGGAUUGAGCAUCA
`CAACGCCAUGGUGGAAGGCUCCGAGCUCAAGAAGGUCCGAUCCAACUCCAGGGUGUACCACCGCUACUUCCUCCUGGAUGCUGAUAUGCAGUCUCUACGCUGGGAACCUUCCAAAAAGGA` has a bound/input enrichment of 0.289 ratio.
`GUGACUUUGGAAGUCCGCAGUGUCUCAUUGCAGAUAAUUUUUAGCUUAGGGCCUGGUGGCUGGGUCGGUUCUCUCCUUUCCAAUCGGAGACCUCUGCCGCAAACAUGCUCCGCCAGAUCA` has a bound/input enrichment of 0.439 ratio.
For `CUGCUGUGGUUUCUAUUAUUUCCUCUGUUUAGAAUAUUUCGUAUGCUAAAGUCCCAACUCUCUAGUUUUUGAUGGAAUUGCUAUAUUGACAGUUCUCACCUAAGUGCUUUGACAAAGAGC`, the bound/input enrichment was 1.79 ratio.
`UCCAGGGGCUGGUAGAGUAGGUCCUGUGCCCCUGAGAGUGUCUUUCUUUGUUUUAUUGUCCUCGGGGGGGGGGGGGGGUGCACACCGACCCUGAGGCAUGAGCUUUGUGGUUCAUCUCGU` has a bound/input enrichment of 0.706 ratio.
`AAUAGUUUUAAGCUUGUUUGCACAGUCUUUUUUUUCCAUUGGAGAUGGAAUUCAUUGCCUUAGGUCUUUUUAAUAGUGUAUUGUUAUUGUUGGGCUGGCUCUAUGCUUGAAAACCAGUUU` has a bound/input enrichment of 2.17 ratio.
`UACUUCUGGUGAUAUUUGGCCUGGCCUUUCAGCUUAUGAUAAUAGUCCAAGGUCACCUCAUAGUCCUUCACCUAUUGCUACACCACCCAGUCAGAGUUCAUCAUGCUCAGAUGCCCCCAU` has a bound/input enrichment of 0.819 ratio.
`GCAUGCACAUGCCACUGUCACCGAAAGCGAACCAUCACGUCUCAGAUUUCCGAGCUGUUGUAGUGUUUCCCAGUCCCUACCCUUCCCAUGACUUUGAGAGAUGAACUGUCCUGAGUUGUU` has a bound/input enrichment of 0.525 ratio.
For `GCACAGAAUGUUUUAACCUGUUUGAAGAUAACACGUGAGCUUUGCUUUGGAGCAUUUAAAUAGGCUACUUUUCUAUCGCGACUGCUCAAAGAAUUUGAAGUUAUGUGUUAGUUUUGCUCU`, the bound/input enrichment was 0.285 ratio.
`ACCAUGUACCCUGCUGUAUAAUAGACAACCAAGACACUUGUCAACUAUUGAUACAGGUGUUAGUCCCAAACCACUUUUUAUAUGUUUUAAAUUUUGAAAUUCAAGUGUAUCUGCCAUAAC` gave a bound/input enrichment of 1.76 ratio.
With `UAAGAUCUGGAUUGUGGAGCCAAACCAAGGGGUUUGAAAGUAUAGAGGUUUGUAAAGUUCCAGCCCCGCAGCUGCACAGCACACCACCACUGCUGCUGUGCUCAGGUGUUUAUUGCAGUC` the bound/input enrichment was 0.362 ratio.
For `UCAUUGUACUGCCUGCGUCACCCUAGUUUUAAACCAGCUGCUGUGAUAACUAGUGUGUGCUAGCAGAAUUAUUUACUAUUACCUUUUAAACUAUGCGCUUUGCCCGAUAGCUGAAAGCAA`, the bound/input enrichment was 1.6 ratio.

Sample 2
Target: RNA binding protein fox-1 homolog 2, RRM domain, GST-SBP tag (RBFOX2, Homo sapiens, UniProt O43251-10, residues 100-194)
Technique: RNA Bind-n-Seq
Molecule type: RNA
Medium: in vitro
Concentration: 365 nM
Setting: natural RNA segment, single round, ends assumed
Reference: no-protein control
Reading: higher = stronger binding
Constant ends, left off below: GGGAGUUCUACAGUCCGACGAUC … UGGAAUUCUCGGGUGCCAA
Residues (chain): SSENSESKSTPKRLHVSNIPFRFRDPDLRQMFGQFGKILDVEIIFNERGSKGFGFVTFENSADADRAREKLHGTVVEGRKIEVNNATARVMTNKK
`CAUAGUGACAUCACCUGUGGAUAUUUAAUGAGUGUGGGAUGCGGGGUCUGCGGUAGAGAUGGUUUCUGGCAGCCGCAGCAGCCCCAGGUACCUAGCCUCCCCUGGCUGCU`: “RBNS enrichment (R)” 0.374.
For `UGUGUUAUUUUCCACAGAAUAUAGAAUAUAUAUUUUUUUCGUGUGUGUUUUUGUUAACUACCCUACAGAUAUUGAAUGCACCUUGAGAUAAUUUAGUGUUUUUAACUGAU`, “RBNS enrichment (R)” read 0.629.
`GAUCACCUGAGGACAGGAGUUCGAGACCAGUCUGGCCAACAUGGGGAAACCCCGUCUCUACUAAAAAUACAAAAAUUAGCCGGGCAUGGUGGUGGGCGCCUGUAAUCCCA`: “RBNS enrichment (R)” 0.298.
Under “RBNS enrichment (R)”, `UGAUAUAAAGUUAGGAUUUGGGAAACGUGUAGUUAACAACUUGGAAACAUGAAGAUAUUAAAAUGGCAGCUGGCUAACUGUCUCUUAAGCCACUAUGCAAUUUCUACCAA` is recorded as 0.536.
For `AGCUAAGAUUUGAUGGCCAGCUGGUUGCCAAAACCUCAAGUCAAUCCUGUGUGCUGGUUAGUUAUGCAAGAAGAAAGCCCCGUAGAAACAGCCUCCAGCUGCACUGGGAG`, “RBNS enrichment (R)” read 0.561.
Under “RBNS enrichment (R)”, `GUCCAGUAGUCACAUAGCUUUAAUAUCUAGUUCAAAGCUAACCAUAGUAUAAUUGUUAUAUUAAGGAGUUAUUUUUUCUUAAAACAUUUUUUUUUGCUUGUUUUGGUUCU` is recorded as 1.89.
`AAAAUGGGAAACCUUACAGGACAUAAAACAUUAGGCUCGGGUUAGGCACUAAGAUAAAGUCUAGUCCAGUUCUCAUUUUAAAAGUCAACUAGCUCUAAAGCUAGUUAGUG` — result for “RBNS enrichment (R)”: 0.335.
`ACACAAGUAGCACCGUGUCGCCUCCCUUUAUCUUCAUAUUGAUAAAAGACUUUAUGUGGAUCUUGUAAAACAGAACCAGAUCUCCUUCUGGGGAAGGCCUUGCCUCUAGG`: “RBNS enrichment (R)” 0.71.
Under “RBNS enrichment (R)”, `GAUAGUCCCAAAGCAUGACCACAAAGUAGAGAGCACGUGGUUAGAAACCACUUCAUCAGAAUGUGUGAGUCCUGGGGAUGCAUGGGGCACAGUUGAUGCUGCUUGGGACA` is recorded as 19.3.
`AGUAUAACCAGCUGAAGUUGCAGAUGUUAGAUAUUUUUCAUAAACAAGUUCGAGUCAAAGUUGAAAAUUCAUAGUAAGAUUGAUAUCUAUAAAAUAGAUAUAAAUUUUUA`: “RBNS enrichment (R)” 0.622.
For `GUGAUGUCACAGUGCAAACUGCAGUGACUGUAAAUUGGCCUGGCGUGUAUAAACGUUUUCAGGGAAUGCAGAAGGUAUUAAUGAAGAGACAAAACCUUUAUUCCAUGUGC`, “RBNS enrichment (R)” read 0.967.
Under “RBNS enrichment (R)”, `CAGAGCCUUCCGAGCAGCAUUUAGAAAGCACCUUUGGGAAUGAUGGACUGCAAGGGAGUGGGCGGAUCUUCCUCUUAAACAGUAUUCUUAGAGUAGGAUUGACCUCAUGG` is recorded as 1.62.

Sample 3
Target: HLF, bZIP domain (human)
Technique: DHFR protein complementation
Medium: yeast
Setting: single substitutions, most at no-binding floor
Reference: wild-type JUN-FOS pair
Reading: higher = stronger binding
Starting sequence: JUN, bZIP domain (human); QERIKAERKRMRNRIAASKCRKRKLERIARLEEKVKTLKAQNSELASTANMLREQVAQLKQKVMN; partner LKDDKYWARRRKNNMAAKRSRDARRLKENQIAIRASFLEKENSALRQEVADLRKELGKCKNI
With `R30E` the binding fitness was -1.37 natural log.
The binding fitness of `I28F` is reported as -1.3 natural log.
For `T37I`, the binding fitness was -1.41 natural log.
The binding fitness of `N42M` is reported as -1.49 natural log.
`R30M` has a binding fitness of -1.46 natural log.
For `V35L`, the binding fitness was -1.39 natural log.
For `E33H`, the binding fitness was -1.36 natural log.
`A46Q` gave a binding fitness of -1.27 natural log.
The binding fitness of `S43H` is reported as -1.36 natural log.
`M51L` gave a binding fitness of -1.42 natural log.
The binding fitness of `V56Q` is reported as -1.61 natural log.
`R53G` has a binding fitness of -1.48 natural log.
`A40R` has a binding fitness of -1.36 natural log.
The binding fitness of `Q55A` is reported as -1.43 natural log.
`K39P` has a binding fitness of -1.54 natural log.
With `Q41G` the binding fitness was -1.51 natural log.
With `L31N` the binding fitness was -1.49 natural log.
`T37N` has a binding fitness of -1.23 natural log.
For `A29V`, the binding fitness was -1.4 natural log.
`R53W` has a binding fitness of -1.37 natural log.
`L31R` has a binding fitness of -1.45 natural log.
`K34A` has a binding fitness of -1.45 natural log.
For `L31Y`, the binding fitness was -1.22 natural log.
The binding fitness of `N42P` is reported as -1.52 natural log.
`K36H` has a binding fitness of -1.45 natural log.

Sample 4
Target: Histone acetyltransferase KAT6A, both winged helices, GST fusion (KAT6A, Homo sapiens, UniProt Q92794, residues 1-181)
Technique: protein binding microarray
Molecule type: double-stranded DNA, one strand shown
Medium: in vitro
Concentration: not given
Setting: 8-mer, flanks averaged, mean of 2 arrays, mostly near background
Reference: not given
Reading: higher = stronger binding
Construct (chain): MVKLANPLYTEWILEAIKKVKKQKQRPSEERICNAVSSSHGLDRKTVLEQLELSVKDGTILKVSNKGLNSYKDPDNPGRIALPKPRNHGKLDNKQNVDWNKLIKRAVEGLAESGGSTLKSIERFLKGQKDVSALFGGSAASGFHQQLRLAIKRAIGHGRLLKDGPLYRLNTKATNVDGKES
With `TAAATAAA` the E-score was 0.0119.
`AGGCATCG` gave an E-score of -0.0522.
With `GGCTACAC` the E-score was -0.00321.
With `TGCAATAA` the E-score was -0.0821.
For `CGCAAGTC`, the E-score was 0.0448.
For `AACATTAG`, the E-score was -0.093.
The E-score of `TATCGAGA` is reported as -0.137.
With `AAGGCGAC` the E-score was -0.0821.
`ATCGGAGG` has an E-score of -0.00843.
`CAGACCTG` gave an E-score of 0.00624.
`GTAGCGGA` gave an E-score of 0.132.
The E-score of `CGACTGCA` is reported as -0.0699.
`ATTCTGTA` has an E-score of -0.169.
`CGGACAGC` gave an E-score of 0.143.
The E-score of `CTATAACC` is reported as -0.0595.
With `CTCTTGGC` the E-score was -0.0752.
With `ATTGGGAA` the E-score was -0.108.
`AAAGTATT` gave an E-score of -0.165.

Excerpt of the above (sample 4):
`CGGACAGC` gave an E-score of 0.143.
The E-score of `TATCGAGA` is reported as -0.137.
With `GGCTACAC` the E-score was -0.00321.
The E-score of `CGACTGCA` is reported as -0.0699.
`AAAGTATT` gave an E-score of -0.165.
